# Results of several laboratories.
# Parts stem from different laboratories: compare values within a part only. Substitutions count along the parent as printed.

# Study 1
# Target: Histone acetyltransferase KAT6A, winged helix 2, GST fusion (KAT6A, Homo sapiens, UniProt Q92794, residues 85-181)
# Method: protein binding microarray
# Molecule type: double-stranded DNA, one strand shown
# Medium: in vitro
# Concentration: not given
# Notes: 8-mer, flanks averaged, mean of 2 arrays, mostly near background
# Relative to: not given
# Direction: higher = stronger binding
# Construct (chain): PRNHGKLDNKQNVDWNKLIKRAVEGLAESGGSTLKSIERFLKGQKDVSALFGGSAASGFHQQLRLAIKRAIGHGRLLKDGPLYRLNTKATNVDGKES
Sequence,E-score
CGGTGAAC,0.0495
GACGGCCC,0.0908
AATGCATA,-0.207
CACTACTC,-0.0198
CTTTCGAA,-0.0349
GCTAAAGC,0.0584
GGTGCGGA,0.0575
GACTCGAA,-0.118
CCTAAGAC,-0.305
ACAGTCTC,-0.246
ACGAAGGA,-0.0799
CTTCCTCA,-0.0338
GGAACATA,-0.0203
ACCCGAAC,0.101
CACTCGCC,0.228
ATCTTTTA,0.0206
TCAACTCA,-0.0532
CCTATGCG,-0.0237

# Study 2
# Target: ABI1, truncated, D143A, DHFR fusion (Arabidopsis thaliana)
# Method: DHFR PCA, deep sequencing
# Medium: yeast
# Notes: methotrexate growth selection, single substitutions
# Together with: (+)-ABA 17 µM
# Relative to: wild-type fitted maximum
# Direction: higher = stronger binding
# Parent: PYL1, truncated, DHFR fusion (Arabidopsis thaliana); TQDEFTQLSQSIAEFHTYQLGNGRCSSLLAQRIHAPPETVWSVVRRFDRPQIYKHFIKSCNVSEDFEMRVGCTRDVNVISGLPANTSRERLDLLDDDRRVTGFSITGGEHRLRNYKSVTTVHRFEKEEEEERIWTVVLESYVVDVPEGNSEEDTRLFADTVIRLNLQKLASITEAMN; partner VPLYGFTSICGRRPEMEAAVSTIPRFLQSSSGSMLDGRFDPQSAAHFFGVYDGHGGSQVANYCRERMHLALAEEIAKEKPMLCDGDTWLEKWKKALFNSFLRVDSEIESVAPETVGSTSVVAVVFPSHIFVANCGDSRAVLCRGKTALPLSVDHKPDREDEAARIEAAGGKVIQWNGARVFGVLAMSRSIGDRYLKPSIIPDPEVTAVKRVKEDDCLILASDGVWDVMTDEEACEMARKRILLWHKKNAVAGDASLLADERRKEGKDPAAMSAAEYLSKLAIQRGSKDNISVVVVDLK
Variant,relative binding score [%]
A158W,4.67
F56C,33.5
S87R,21.7
L91P,-20.4
V142M,76.9
E131G,96.7
A170R,89.3
H122T,16.6
V161Q,4.92
N77A,86.7
D95P,7.14
N22F,78.2
Q31H,65
L82V,60
V137A,12.1

# Study 3
# Target: CRIPT, C-terminal peptide
# Method: DHFR complementation, deep sequencing
# Medium: yeast
# Notes: single substitutions, model-inferred values
# Relative to: wild type
# Direction: higher = weaker binding
# Parent: ERBIN, PDZ domain 1 (human); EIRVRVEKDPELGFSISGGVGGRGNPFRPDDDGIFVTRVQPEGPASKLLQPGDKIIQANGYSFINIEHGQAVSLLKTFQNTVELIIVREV; partner TKNYKQTSV
Variant,binding free energy change [kcal/mol]
F63Y,0.414
V4Y,0.0636
G24Y,1.58
Q70M,0.0434
K76C,0.489
V39R,0.668
V20S,-0.0799
E1C,0.238
K54S,0.879
R3G,0.175

# Study 4
# Target: CCNF, cyclin fold, Cln2 fusion (human)
# Method: yeast growth competition, sequencing
# Medium: yeast
# Notes: strong parent motif
# Relative to: not given
# Direction: higher = stronger binding
# Parent: CDC6 docking peptide (human); TLKGRRLVFDNQL; partner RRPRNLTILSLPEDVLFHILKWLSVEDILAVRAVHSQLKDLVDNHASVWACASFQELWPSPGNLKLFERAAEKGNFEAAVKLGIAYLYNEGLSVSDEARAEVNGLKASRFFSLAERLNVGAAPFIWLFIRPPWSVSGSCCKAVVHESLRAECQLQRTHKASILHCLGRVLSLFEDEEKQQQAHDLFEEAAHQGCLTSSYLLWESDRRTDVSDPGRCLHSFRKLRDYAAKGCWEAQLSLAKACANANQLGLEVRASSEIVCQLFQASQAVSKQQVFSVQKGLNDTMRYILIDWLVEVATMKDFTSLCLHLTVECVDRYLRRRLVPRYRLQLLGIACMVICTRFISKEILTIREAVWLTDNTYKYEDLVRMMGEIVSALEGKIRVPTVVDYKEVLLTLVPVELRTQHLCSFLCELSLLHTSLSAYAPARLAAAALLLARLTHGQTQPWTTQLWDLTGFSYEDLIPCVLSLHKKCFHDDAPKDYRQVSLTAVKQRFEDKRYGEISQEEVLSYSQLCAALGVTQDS
Variant,normalised enrichment score
TLKGRRLVHDNQL [F9H],0.634
TLKGRRLVFDNQF [L13F],8.46
TQKGRRLVFDNQL [L2Q],7.79
TLKGRRLVFDPQL [N11P],9.25
TLKGRRLVYDNQL [F9Y],5.03
TLKGRRLVFDNVL [Q12V],9.19
TVKGRRLVFDNQL [L2V],8.43
TLKGRRLVFDNQC [L13C],8.64
NLKGRRLVFDNQL [T1N],9
TLKGRRLVFGNQL [D10G],7.15
TLKGRRVVFDNQL [L7V],1.1

# Study 5
# Target: RNA binding protein fox-1 homolog 2, RRM domain, GST-SBP tag (RBFOX2, Homo sapiens, UniProt O43251-10, residues 100-194)
# Method: RNA Bind-n-Seq
# Molecule type: RNA
# Medium: in vitro
# Concentration: 365 nM
# Notes: natural RNA segment, single round, ends assumed
# Relative to: no-protein control
# Direction: higher = stronger binding
# Construct (chain): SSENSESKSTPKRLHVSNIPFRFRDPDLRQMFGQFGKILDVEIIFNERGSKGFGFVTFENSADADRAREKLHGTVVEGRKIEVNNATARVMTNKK
Sequence,RBNS enrichment (R)
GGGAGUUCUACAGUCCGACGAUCUCCCCAGGCCGCCACUGCCCUUGCCCCUUUCAUCUCCCAGCAGCCCUCAGGAGCGUCAGGAUCAUUUUCAACUCUGGUUAGGCCUCCUACCUGGGGAGGCCAGGUCACUGUGGAAUUCUCGGGUGCCAA,0.472
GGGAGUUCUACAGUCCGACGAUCGAAGGCUGUCAAACUCAAAUAUCUUUGCAAACAGUUUGAAUACUGUGAAUUCAUUACGAAGAAUGUUCGAGAGAAAGCAGGGGUCUAAUCCAAAAGAAAUGUCAUUAACCUGGAAUUCUCGGGUGCCAA,0.498
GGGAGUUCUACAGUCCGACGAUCUUGUGUUGUUCCAGGGCCUGUGCUAAGCACAGGCACCAAACAUAAAAAGAGAGAAAGUCCUUGCUCCCGGGAACUCCCACUCUCUCAGGAACCACAGACCACCAAUGUUGUGGAAUUCUCGGGUGCCAA,0.341
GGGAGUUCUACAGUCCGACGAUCUCUAAACCUGAAGUAUAAUUAUAUGCAGUGCUUCUUAAGGCUUCAUAAAAUAAUUUUCCAACCUUUUAAAAAUAUGUUUCUUUCAUUGUUUUAUACCUAACCUUGCAGACUGGAAUUCUCGGGUGCCAA,0.745
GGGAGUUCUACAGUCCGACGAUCGGGCACUGCUUAGAUGGCUGUUAGCUUAGAACUGGUGAAGUAAAGAUUUGGUCCCAGAAACCAGCCUGACAUGAGAACAAGCCAGGGUGUCUUCCUGGUGAGUUCUACUCUGGAAUUCUCGGGUGCCAA,0.851
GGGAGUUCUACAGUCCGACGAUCCAGUCUCCUGUUCUCAGUCAGGCUUCGCUUGAGGUCAGUGCUAUAAAAAUUGAAAGCUUCCAGAGAGCUGCCCUGGUCUCCCUUCCUCUCCUGUAAGAGUAUUAAUGUUGUGGAAUUCUCGGGUGCCAA,0.561
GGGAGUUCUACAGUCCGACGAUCAUAUGUGGCCUCCGGGAGACACCUGCUUGGAAGGAGGCAGUGAUGGAGAUAGAGCCCCACUCUGAGUCUGGGCUCAGAGUGCCCUGACUGCUCUCCCCCACCCCAUCCCCUGGAAUUCUCGGGUGCCAA,0.62
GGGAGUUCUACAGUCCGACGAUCCCAGUGUCGGUGGCCCGGCACAGGGCCGUGCUCUGUCGGACUGUACGGAUUGUUCAGCUUCAGACUGACAAAUGCCUUUCUCACAAGUUCCUGCUUCUUGCCGUGAUACUUGGAAUUCUCGGGUGCCAA,0.19
